Measurements from different studies.
Every numbered part comes from another study and shows a few of its results, in no order. Substitutions count along the parent as printed.

Block 1
Target: Ras GTPase-activating protein-binding protein 1, C-terminal RGG region (G3BP1, Homo sapiens, UniProt Q13283)
Sequence of UniProt Q13283 (whole entry, looked up): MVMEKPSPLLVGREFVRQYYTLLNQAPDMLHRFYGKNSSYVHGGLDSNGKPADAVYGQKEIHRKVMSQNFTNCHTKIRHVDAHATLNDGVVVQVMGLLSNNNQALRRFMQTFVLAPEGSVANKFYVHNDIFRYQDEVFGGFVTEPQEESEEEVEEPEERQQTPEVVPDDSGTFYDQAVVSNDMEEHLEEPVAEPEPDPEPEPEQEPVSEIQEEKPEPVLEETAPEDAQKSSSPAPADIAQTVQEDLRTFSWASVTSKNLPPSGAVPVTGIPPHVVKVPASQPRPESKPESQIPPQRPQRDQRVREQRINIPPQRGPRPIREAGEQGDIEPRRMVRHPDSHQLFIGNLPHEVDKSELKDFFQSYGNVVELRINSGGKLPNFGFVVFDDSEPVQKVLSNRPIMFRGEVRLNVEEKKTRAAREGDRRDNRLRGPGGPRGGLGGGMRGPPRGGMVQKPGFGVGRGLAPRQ
Method: RNA Bind-n-Seq
Molecule type: RNA
Medium: in vitro
Concentration: 1 µM
Setting: whole 134-nt RNA, ends assumed
Together with: 150 mM KCl
Baseline: input library
Direction: higher = stronger binding
Constant ends, left off below: GGGAGUUCUACAGUCCGACGAUC … UGGAAUUCUCGGGUGUCAAGG
| Strand | log2 enrichment |
| --- | --- |
| UUUUCAUACCGAUCUAGAGUUCGUCCUUGCGUGGUUUAUGGUGGUGCCGAUAUUGGUCAGCAGAUUCGAGACUUGGAACGUGGAUGCCAU | -0.00777 |
| UCCUGUGCUACACAUCGUAUGUACCGAAUCGGCCCCCCCGGCCCCCCCGGCCCCCCCGGGAAAGUAUUAUGUUACGCCGUUCGGAUCUGC | -1.51 |
| GCAGGAAUUAAAAACAAAUGGAAAUGCUUCGGAUAGUGGCAGGGGUGGGGGUUGCUAAGGAAAGGGUGGGAUGGGAGUGGGUAAAGAGUU | 1.97 |
| GUCCUGUGCUACACAUCGUAUGUACCGAAUCGGGUUUGGGAAAAAGGGUUUUUUUGGGAAAGUAUUAUGUUACGCCGUUCGGAUCUGCAC | 0.625 |
| CUCAAGUCCUGUGCUACACAUCGUAUGUACCGAAUCGGAAGGGAAGGGGAAGGGAAAGUAUUAUGUUACGCCGUUCGGAUCUGCACUUCC | 0.105 |
| UUGCGCCUGUCCCGGGUGAAGUGUGUCGGCCUCUCCGCACGCACCACGGAGACCAGCAGUGCAGUCAUGUGCCUGGACCUUGCAGCUUCC | 0.381 |
| UCAAGUCCUGUGCUACACAUCGUAUGUACCGAAUCGGGUUGGGGUUGGGUUGGGAAAGUAUUAUGUUACGCCGUUCGGAUCUGCACUUCC | 2.14 |
| UUAAUGAUAUAAGUAGAGAGUAGUAUCCUGGUGGAGUUGUAACCACUAUUUUUGUUUUCUAGAUCCCUAUGGUUCAGGAGGCCAGAAAUU | -1.35 |
| ACCAUGCAGGUGGGCAUCUUUGGGAAGUGGGGCAAAAAGGGGAUAGGGAGGGGGGUAACACUUUGGGAACAGGUGGUCCCAGGUCGUUUC | -0.928 |
| UGAUCAGCAAAGCCAAGAUGAGCCUUUGAGAAGCAGAAAAGUGUUUGUGGGGCGCUGUACAGAGGACAUGACUGAGGAUGAGCUGCGGGA | -0.512 |

Block 2
Target: Sal-like protein 4, full length isoform B (SALL4, Homo sapiens, UniProt Q9UJQ4-2, residues 1-616)
Method: universal PBM
Molecule type: double-stranded DNA, one strand shown
Medium: in vitro
Concentration: not given
Setting: 8-mer, flanks averaged, mean of replicates
Direction: higher = stronger binding
Construct (chain): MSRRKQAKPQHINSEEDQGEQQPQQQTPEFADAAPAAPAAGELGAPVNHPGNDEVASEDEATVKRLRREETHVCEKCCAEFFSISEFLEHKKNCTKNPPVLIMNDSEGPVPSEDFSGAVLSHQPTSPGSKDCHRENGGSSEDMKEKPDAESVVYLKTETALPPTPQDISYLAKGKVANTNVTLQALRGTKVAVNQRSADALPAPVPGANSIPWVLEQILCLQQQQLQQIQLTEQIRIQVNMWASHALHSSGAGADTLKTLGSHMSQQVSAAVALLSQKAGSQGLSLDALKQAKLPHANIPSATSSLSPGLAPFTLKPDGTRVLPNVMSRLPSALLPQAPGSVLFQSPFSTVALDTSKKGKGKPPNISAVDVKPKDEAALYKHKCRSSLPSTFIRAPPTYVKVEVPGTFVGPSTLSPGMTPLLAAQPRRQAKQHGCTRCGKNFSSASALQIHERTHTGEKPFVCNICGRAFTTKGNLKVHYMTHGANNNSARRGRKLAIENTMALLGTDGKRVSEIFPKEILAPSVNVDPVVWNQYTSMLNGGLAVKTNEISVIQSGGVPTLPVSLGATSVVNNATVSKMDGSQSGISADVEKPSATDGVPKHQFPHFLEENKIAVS
| Strand | E-score |
| --- | --- |
| ATTCCTAC | 0.0868 |
| CCGTATAC | 0.0688 |
| GGTCTGAC | -0.187 |
| GGCGGGCA | -0.203 |
| TGGGTTAA | 0.00991 |
| GCATGGGA | -0.15 |
| CATTCGGC | -0.229 |
| AGCTATTA | 0.238 |
| CAAACACA | 0.136 |
| ACTGCGCG | -0.309 |
| ATTACTAC | 0.25 |
| CGAGCCCG | -0.235 |
| AAGCGTCT | -0.0716 |
| CTATTTCC | 0.175 |
| GTGACAGA | -0.0815 |
| TCTTACAA | 0.0987 |
| TGAGCTAA | 0.0685 |
| CGGAGTTA | -0.144 |
| GACTCACC | -0.102 |
| ACACACGT | 0.13 |
| GCGACTCA | -0.147 |
| GACATTGC | 0.082 |
| ACTGAACG | 0.0185 |
| AGTTGTCA | 0.0246 |
| ACGAATAG | 0.0616 |

Block 3
Target: Histone acetyltransferase KAT6A, winged helix 2, GST fusion (KAT6A, Homo sapiens, UniProt Q92794, residues 85-181)
Method: protein binding microarray
Molecule type: double-stranded DNA, one strand shown
Medium: in vitro
Concentration: not given
Setting: 8-mer, flanks averaged, mean of 2 arrays, mostly near background
Baseline: not given
Direction: higher = stronger binding
Construct (chain): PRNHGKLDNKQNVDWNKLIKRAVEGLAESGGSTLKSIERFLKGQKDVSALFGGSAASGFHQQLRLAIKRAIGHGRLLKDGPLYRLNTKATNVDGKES
| Strand | E-score |
| --- | --- |
| AGTATGAT | -0.103 |
| CCTACTCA | -0.0359 |
| GCTTAGAA | -0.0184 |
| TATGTTAA | 0.0584 |
| ACTATCCA | -0.0569 |
| AAGACCCT | -0.0124 |
| AGAGTACT | 0.0253 |
| CTATCTGC | -0.122 |
| CGTATTAA | 0.0119 |
| ATTATATC | -0.0829 |
| AACGACGC | -0.129 |
| GAATTGAA | -0.0704 |
| CAGCTTAG | 0.0653 |
| ACGAACGG | 0.0898 |
| AAAGCGGG | 0.0809 |
| CTCTAATC | -0.0106 |
| CAAAAACA | 0.152 |
| GCCTAGAC | -0.135 |
| GTTTTGGA | 0.127 |
| CGTAACCA | -0.216 |
| ATCACTGC | 0.23 |

Block 4
Target: CCND3, cyclin fold, Cln2 fusion (human)
Method: yeast growth competition, sequencing
Medium: yeast
Setting: weak parent motif
Baseline: not given
Direction: higher = stronger binding
Parent: NPAT docking peptide (human); PCHRRVLCFDSTT
| Substitution | normalised enrichment score |
| --- | --- |
| S11A | 0.128 |
| R5K | 0.218 |
| H3A | 0.16 |
| T12A | 0.0624 |
| R5A | 0.118 |
| D10A | 0.115 |
| R4A | 0.117 |

Block 5
Target: RING finger protein unkempt homolog, zinc fingers 1-6, GST-SBP tag (UNK, Homo sapiens, UniProt Q9C0B0, residues 30-357)
Method: RNA Bind-n-Seq
Molecule type: RNA
Medium: in vitro
Concentration: not given
Setting: RNA with constant flanks, ends assumed
Baseline: input RNA pool
Direction: higher = stronger binding
Constant ends, left off below: GGGAGUUCUACAGUCCGACGAUC … CAACAGAGGAUUGAGCAUCA
Construct (chain): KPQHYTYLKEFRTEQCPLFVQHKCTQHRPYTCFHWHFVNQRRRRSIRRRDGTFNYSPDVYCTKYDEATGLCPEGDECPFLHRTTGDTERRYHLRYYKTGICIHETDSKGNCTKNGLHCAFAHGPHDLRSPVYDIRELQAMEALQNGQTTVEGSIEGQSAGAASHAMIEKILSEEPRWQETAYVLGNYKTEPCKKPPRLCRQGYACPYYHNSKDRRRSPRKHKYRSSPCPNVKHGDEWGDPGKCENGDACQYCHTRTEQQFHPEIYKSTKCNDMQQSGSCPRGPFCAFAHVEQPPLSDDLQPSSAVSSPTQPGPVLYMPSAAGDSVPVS
| Strand | bound/input enrichment |
| --- | --- |
| CAGAGCAUAGCGAUUGUUUUUGGCCCCACCCUUCUAAAGCCAGAAAGAGAGACUGGUAAUACCGCAGUUCAUACUGUGUACCAGAACCAGAUUGUAGAGCUGAUUCUCCUGGAAUUAAGC | 0.266 ratio |
| GGGUUUGGGGUAGAAGGGAGGGAGGGGGCAGGACAGUGUGGAAUCUCUAGGGUGUAUGGGCCGGCCGGGGGCACAGUUAGUUCUAAGUGGGCUUUUAUGCUAAAAGCCUCUGGGGAUAUC | 9.68 ratio |
| GAGAAUCCAUAUGACCUUGAUGCUUGGAGCAUUCUCAUUCGAGAGGCACAGAAUCAACCUACCGACAAAGCACGGAAGACUUAUGAACGCCUUGUUGCCCAGUUCCCCAGUUCUGGCAGA | 0.17 ratio |
| AGAGGAGUUUGGGGGCUUGGCACCUGAAAAUUUAGACCGCAUUCUUAUUAAGUAAAGGAAGAGGCCGGGAGGCCGAGGCGGGCGGAUCAUGAAAUCAGGAGAUCCAGACCGUCCUGGCUA | 0.834 ratio |
| ACCCGCUACACCCAGGGAACAGGUGGUGAUGAGGUUGAUGAUUCAGUGAGUGUAAAUGACACCGAUUUAAGCCUGUACAUCCCAAGAGAUGUAGAUGAAACAGGUAUUACUGUAGCCAGU | 0.148 ratio |
| CGGGAUGACCAGACUCCCGGACUCCUCAGGCAGUGCCCUUUCCUCCCACUUUUCCUCCCCCACCGCCACAGGCCUCUGCUCCUGCUCCUGCCUGCAUGUUCUCUCUGUUGUUGGAGCCUG | 0.876 ratio |
| GAAGCUACAUACCCAAAUACAUAUAUUUUUGACUUAUUUGGAGGUGUUGAUCUUCUUGCCGAAAUUCUUAUGAGGCCUACCAUCUCUAUCCGGGGACAGAAACUAAAAAUAAGUGACGAG | 0.35 ratio |
| AACAUUACUGUGCUAAGGAGCCAGUGUGAUGCUGCUUCCCAGACGGUUACUGGUCAUCAUUCCGAAACCCAUGAUUUAAAGAUUCUCAUUAGCUCUGGACAGCAGAAGUCAUUGGCUAAA | 0.066 ratio |
| UCUUAAUCAUAGUCUACCAUCAAAUACUUUAGGAGUAUCCUUAAUGUUUAGAUAGAAUAUCCGCAGCAUGCAAUAAUUACAUCCUAAGUUCUCAAGCAGAGGCAGUCUAUUGCAAGGACC | 2.9 ratio |
| GAAGCCAGCUCUACCGAGGACUCACGUGCUACCAGCAUCCCUGGGAGCCCUUUCAACCUAUUCCGUGACCUUGACAAAGCAGAUGACCUGCCCAGUCACCAAAAAAUAUUUGAUCUAAUG | 0.212 ratio |
| ACUUUAAACCAUUUGACUUUCGCUCCAAAGUUAUGUUGGUAGUAUAGCAAAUUAUGAUGAACCGCUUUAAUUGUAUGUUUAAAAGUCUCAUAUGUUCACAUGCUUAAAUCUGGGUAUCAG | 1.51 ratio |
